Results from different studies.
Protocols differ between the studies behind these lines. ± gives the spread as reported.

`CCOC(=O)COC(=O)[C@@H]1C(C=O)=Cc2cc3c(cc2[C@H]1c1cc(OC)c(OC)c(OC)c1)OCO3` gave a selectivity index of over 23.4 (Leishmania; mouse splenocytes; baseline: CC50 over amastigote EC50).
For `CCOc1ccccc1Nc1nnc(SCC(=O)Nc2cc(F)ccc2F)s1`, the TNF-α secretion was 692 ± 21 pg/mL (PBMC-airway epithelium co-culture; 5 µM, 48 h, with: anti-CD3/CD28).
For `CCC1NC(=O)C(CCCNC(=N)N)NC(=O)C(C)(NC(=O)C(C)C)CCCCNC(=O)C(c2ccccc2)NC1=O` (stereo not drawn), histone methylation read “no effect” (immunoblot, refers to: H3K27me3, H3K36me3, H3K79me3; MLL-AF9 leukaemia cells, mouse; dose not given, four days).
For `CCOC(=O)C1=C(C)NC2=C(C(=O)CC(C)(C)C2)C1c1ccc(OCC(=O)NN=Cc2cccc(C=O)c2)cc1OCC(=O)NN=Cc1cccc(C=O)c1` (stereo not drawn), “inhibition zone diameter” read 3.1 ± 0.6 mm (Enterobacter aerogenes; CCM 2531; concentration not given, 24 h).
`COc1cc([C@@H]2c3cc4c(cc3[C@@H](CC(C)(C)O)[C@H]3COC(=O)[C@H]23)OCO4)cc(OC)c1OC` has a selectivity index of over 1.9 (Leishmania infantum; Alamar Blue; HepG2; baseline: CC50 HepG2 over EC50 amastigotes).
`CC(=NN=c1[nH]c2cc(F)c(F)cc2n1C)c1ccc(F)cn1` — result for “tumour volume reduction”: over 60% (MDA-MB-231 xenograft, SCID mice; i.p., 10 mg/kg/day, end of treatment; baseline: vehicle).
With `COC(=O)[C@@H]1C(C=Nc2cncnc2NC(C)=O)=Cc2cc3c(cc2[C@H]1c1cc(OC)c(OC)c(OC)c1)OCO3` the selectivity index was over 6.4 (Leishmania; mouse splenocytes; baseline: CC50 over amastigote EC50).
`Cc1ncsc1-c1ccc([C@H](C)NC(=O)[C@@H]2C[C@@H](O)CN2C(=O)[C@@H](NC(=O)CCCCCCC(=O)N2CCN(C[C@]3(C)CCC(c4ccc(Cl)cc4)=C(CN4CCN(c5ccc(C(=O)NS(=O)(=O)c6ccc(N[C@H](CCN7CCOCC7)CSc7ccccc7)c(S(=O)(=O)C(F)(F)F)c6)cc5)CC4)C3)CC2)C(C)(C)C)cc1` — result for SA-β-gal staining: “decreased” (STAM mice NASH-HCC model, liver; intraperitoneal, 5 mg/kg twice weekly, day 90, from day 45).
For `C=CC(=O)N1CCC(c2cc(Nc3cc4n(n3)CCOC4)c3ncnn3c2)C1` (single isomer, unassigned), the IC50 was over 1 µM (TMD8; calcium flux, FLIPR; 4 h preincubation, with: anti-IgM).

Excerpt of the above:
`COc1cc([C@@H]2c3cc4c(cc3[C@@H](CC(C)(C)O)[C@H]3COC(=O)[C@H]23)OCO4)cc(OC)c1OC` has a selectivity index of over 1.9 (Leishmania infantum; Alamar Blue; HepG2; baseline: CC50 HepG2 over EC50 amastigotes).
